Assay results gathered from unrelated publications.
Parts stem from different laboratories: compare values within a part only. Values joined by “and” are separate records of one study, mostly repeats; a detail may differ.
Chain of UniProt Q96S53 (whole entry, looked up): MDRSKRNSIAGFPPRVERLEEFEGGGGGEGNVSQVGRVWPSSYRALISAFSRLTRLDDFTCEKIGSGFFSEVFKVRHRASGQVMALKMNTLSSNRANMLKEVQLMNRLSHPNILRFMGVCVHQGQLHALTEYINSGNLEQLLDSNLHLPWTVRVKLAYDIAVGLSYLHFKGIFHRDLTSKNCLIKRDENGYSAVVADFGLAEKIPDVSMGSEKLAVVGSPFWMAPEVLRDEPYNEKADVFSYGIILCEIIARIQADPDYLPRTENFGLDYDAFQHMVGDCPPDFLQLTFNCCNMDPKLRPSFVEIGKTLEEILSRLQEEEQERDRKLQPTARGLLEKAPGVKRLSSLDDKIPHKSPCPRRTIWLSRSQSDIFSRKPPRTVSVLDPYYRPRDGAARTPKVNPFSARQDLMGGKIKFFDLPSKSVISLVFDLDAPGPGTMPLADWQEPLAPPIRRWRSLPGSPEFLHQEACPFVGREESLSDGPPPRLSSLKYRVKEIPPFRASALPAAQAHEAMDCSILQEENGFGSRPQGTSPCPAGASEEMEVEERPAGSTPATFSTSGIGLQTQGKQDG
Chain of UniProt Q9UQM7 (whole entry, looked up): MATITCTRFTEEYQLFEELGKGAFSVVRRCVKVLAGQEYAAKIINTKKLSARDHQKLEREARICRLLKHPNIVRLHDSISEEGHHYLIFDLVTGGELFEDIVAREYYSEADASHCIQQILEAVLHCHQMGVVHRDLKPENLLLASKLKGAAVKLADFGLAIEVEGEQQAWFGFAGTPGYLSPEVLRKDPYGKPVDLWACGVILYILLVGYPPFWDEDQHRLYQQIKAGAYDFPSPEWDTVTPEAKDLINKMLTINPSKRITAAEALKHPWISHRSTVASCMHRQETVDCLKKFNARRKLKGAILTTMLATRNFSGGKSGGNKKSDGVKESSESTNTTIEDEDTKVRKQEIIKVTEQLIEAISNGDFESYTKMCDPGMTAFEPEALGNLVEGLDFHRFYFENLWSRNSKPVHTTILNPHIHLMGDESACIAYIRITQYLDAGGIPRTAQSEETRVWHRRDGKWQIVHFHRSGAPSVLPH
Chain of UniProt Q06187 (whole entry, looked up): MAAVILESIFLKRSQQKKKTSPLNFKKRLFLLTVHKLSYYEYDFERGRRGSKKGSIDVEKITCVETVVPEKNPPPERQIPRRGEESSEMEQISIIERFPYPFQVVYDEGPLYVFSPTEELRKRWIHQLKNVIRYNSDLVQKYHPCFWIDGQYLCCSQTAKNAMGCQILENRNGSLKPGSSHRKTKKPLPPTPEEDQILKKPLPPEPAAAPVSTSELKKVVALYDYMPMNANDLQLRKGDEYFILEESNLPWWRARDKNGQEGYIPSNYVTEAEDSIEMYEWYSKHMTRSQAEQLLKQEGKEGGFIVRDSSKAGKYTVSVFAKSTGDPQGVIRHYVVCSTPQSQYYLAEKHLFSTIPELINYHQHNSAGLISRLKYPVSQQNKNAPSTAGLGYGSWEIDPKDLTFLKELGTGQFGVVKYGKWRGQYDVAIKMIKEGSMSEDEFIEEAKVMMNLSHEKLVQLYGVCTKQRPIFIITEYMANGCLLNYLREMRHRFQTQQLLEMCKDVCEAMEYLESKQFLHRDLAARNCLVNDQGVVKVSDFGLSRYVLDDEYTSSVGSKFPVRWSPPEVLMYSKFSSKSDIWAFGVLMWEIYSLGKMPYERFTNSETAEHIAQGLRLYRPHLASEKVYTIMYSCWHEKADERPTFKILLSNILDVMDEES
Chain of UniProt P42681 (whole entry, looked up): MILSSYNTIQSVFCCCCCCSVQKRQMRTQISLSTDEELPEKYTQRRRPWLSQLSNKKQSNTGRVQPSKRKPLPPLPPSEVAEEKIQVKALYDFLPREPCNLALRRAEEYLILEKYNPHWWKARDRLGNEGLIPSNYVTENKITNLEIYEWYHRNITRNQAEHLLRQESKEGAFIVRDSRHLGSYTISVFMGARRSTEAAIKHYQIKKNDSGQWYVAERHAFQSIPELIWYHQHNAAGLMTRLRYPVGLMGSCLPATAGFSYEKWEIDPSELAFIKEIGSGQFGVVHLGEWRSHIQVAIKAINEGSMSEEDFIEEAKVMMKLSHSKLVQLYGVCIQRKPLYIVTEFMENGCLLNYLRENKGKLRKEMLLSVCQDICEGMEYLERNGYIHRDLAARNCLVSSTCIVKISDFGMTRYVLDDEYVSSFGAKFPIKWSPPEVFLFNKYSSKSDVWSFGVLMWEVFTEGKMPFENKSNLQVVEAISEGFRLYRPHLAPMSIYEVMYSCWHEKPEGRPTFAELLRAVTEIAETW
Chain of UniProt Q9H3Y6 (whole entry, looked up): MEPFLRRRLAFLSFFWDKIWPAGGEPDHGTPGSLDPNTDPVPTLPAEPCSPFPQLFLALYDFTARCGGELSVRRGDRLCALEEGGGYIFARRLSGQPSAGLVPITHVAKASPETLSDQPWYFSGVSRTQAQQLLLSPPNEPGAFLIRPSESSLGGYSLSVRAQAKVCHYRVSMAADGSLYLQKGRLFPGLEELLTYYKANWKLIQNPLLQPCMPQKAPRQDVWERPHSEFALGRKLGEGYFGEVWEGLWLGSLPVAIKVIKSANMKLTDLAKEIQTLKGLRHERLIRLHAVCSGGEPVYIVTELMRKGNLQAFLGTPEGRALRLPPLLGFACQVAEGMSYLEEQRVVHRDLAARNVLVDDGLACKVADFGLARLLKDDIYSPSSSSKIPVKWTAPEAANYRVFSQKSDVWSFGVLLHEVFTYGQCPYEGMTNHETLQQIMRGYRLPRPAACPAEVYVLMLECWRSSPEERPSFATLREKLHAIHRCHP
Chain of UniProt Q00526 (whole entry, looked up): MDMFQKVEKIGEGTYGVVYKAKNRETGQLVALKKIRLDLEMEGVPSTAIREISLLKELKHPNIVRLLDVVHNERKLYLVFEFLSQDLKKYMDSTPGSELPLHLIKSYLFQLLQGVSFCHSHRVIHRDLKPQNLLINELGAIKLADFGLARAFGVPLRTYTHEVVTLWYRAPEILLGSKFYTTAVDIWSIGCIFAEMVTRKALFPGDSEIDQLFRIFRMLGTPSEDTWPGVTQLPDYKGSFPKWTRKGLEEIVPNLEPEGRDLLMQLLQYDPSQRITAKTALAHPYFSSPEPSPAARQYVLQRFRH
Chain of UniProt Q02750 (whole entry, looked up): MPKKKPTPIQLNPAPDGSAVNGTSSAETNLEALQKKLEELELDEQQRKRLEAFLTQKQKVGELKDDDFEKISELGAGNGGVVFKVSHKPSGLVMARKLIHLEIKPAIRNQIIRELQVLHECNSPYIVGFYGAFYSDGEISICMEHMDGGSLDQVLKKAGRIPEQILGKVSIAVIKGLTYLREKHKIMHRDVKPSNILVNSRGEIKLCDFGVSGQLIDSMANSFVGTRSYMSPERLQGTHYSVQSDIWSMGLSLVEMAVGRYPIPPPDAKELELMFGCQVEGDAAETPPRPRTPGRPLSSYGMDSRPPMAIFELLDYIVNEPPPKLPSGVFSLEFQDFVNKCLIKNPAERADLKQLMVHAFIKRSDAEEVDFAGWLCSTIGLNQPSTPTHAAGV
Chain of UniProt P37173 (whole entry, looked up): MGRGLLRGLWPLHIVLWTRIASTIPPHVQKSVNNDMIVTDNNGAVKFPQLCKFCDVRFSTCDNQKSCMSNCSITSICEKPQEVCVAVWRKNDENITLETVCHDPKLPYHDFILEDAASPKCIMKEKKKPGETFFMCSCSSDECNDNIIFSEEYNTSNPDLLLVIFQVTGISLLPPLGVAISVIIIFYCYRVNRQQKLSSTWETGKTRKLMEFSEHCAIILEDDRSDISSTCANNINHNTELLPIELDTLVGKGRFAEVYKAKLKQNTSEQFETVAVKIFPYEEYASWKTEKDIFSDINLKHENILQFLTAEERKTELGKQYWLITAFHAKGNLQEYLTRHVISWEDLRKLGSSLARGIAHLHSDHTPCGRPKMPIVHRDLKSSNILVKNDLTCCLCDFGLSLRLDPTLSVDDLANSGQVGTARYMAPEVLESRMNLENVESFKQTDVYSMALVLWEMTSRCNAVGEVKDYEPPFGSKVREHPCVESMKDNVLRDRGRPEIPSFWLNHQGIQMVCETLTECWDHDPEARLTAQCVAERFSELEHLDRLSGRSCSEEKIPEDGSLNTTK

Study 1
Target: CRBN/Zinc finger protein Helios (Homo sapiens, UniProt Q96SW2+Q9UKS7)
Chain of UniProt Q96SW2 (whole entry, looked up): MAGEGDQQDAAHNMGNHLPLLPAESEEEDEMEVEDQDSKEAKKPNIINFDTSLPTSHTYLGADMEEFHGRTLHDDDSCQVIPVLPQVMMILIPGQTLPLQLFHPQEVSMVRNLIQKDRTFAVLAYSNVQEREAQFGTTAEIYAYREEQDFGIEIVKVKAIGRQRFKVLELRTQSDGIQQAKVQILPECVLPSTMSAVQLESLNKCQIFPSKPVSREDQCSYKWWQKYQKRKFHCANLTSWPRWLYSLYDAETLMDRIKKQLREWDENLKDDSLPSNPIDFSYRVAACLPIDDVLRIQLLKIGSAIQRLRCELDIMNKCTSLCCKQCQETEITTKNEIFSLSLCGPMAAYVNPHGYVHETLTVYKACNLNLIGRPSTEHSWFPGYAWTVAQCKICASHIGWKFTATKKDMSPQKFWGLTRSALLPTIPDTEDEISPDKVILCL
Chain of UniProt Q9UKS7 (whole entry, looked up): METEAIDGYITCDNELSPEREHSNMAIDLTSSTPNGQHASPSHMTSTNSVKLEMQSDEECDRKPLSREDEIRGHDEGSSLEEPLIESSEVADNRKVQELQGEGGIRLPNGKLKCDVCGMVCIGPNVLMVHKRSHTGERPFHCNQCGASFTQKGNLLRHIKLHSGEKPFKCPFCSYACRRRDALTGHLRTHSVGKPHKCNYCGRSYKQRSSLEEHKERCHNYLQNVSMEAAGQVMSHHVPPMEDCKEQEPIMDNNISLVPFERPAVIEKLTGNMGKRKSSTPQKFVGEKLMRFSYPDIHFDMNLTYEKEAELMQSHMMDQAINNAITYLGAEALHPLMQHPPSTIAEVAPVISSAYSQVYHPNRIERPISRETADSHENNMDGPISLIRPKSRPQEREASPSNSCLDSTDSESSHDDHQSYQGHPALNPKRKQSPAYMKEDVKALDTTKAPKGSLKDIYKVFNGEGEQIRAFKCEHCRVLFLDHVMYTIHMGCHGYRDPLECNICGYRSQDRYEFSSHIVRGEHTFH
Mode: degrader
Method: HiBiT
Cells: HEK293
Concentration: 370.37 nM
SMILES	protein remaining [%]
O=C1CCC(N2Cc3c(ccc4c3OCC43CCC(Cc4ccccc4)CC3)C2=O)C(=O)N1 (centres unmarked)	93.3
O=C1CCC(N2Cc3c(ccc4c3OCCC43CCN(Cc4ccccc4)CC3)C2=O)C(=O)N1 (centres unmarked)	65
O=C1CCC(N2Cc3c(ccc4c3OCC43CCC(Oc4ccccc4)CC3)C2=O)C(=O)N1 (centres unmarked)	75.6

Study 2
Species: human
Matrix: microsomes or S9
Concentration: 2 µM
Time: 0.5 h
SMILES	remaining compound [%]
CC(C)(C)CCNc1ccc(CNS(C)(=O)=O)cc1	37.3
CC(=O)c1c(NCc2ccc(Cl)cc2)n(C)c2ccccc2c1=O	3.73
CN(C[C@@H]1C[C@H](F)CN1Cc1cncnc1)c1cnc(C#N)cn1	95.5
COc1ccc(Br)cc1CNC(=O)C(C)n1nc(C)n2c(cc3occc32)c1=O (centres unmarked)	1.59
CCc1nnc(S(=O)(=O)C(C)C(=O)NCC2CCCCC2)[nH]1 (centres unmarked)	> 100
O=C(c1ccccc1)c1cccc2c1N(C(=O)c1ccccc1)CC21CCCCC1	0.147
c1ccc(-c2nc3cccnc3nc2N2CCCCC2)cc1	5.75
O=C(Cn1c(COc2ccc(Br)cc2Cl)noc1=O)Nc1cccc(Br)c1	69.5

Study 3
Compound: Cc1sc(C(=O)NC2COC2)cc1-n1cc(NC(=O)Nc2c(F)cccc2Cl)cn1
Read-out: enzyme activity
Concentration: 10 µM
target	mode	relative to	remaining activity
Dual specificity mitogen-activated protein kinase kinase 1 (MAP2K1, Homo sapiens, UniProt Q02750)	–	untreated control	93%
Cyclin-dependent kinase 3, with cyclin E (CDK3, Homo sapiens, UniProt Q00526)	–	untreated control	91%
Dual specificity testis-specific protein kinase 2 (TESK2, Homo sapiens, UniProt Q96S53)	inhibitor	–	99.2%
TGF-beta receptor type-2 (TGFBR2, Homo sapiens, UniProt P37173)	–	untreated control	86.8%
Tyrosine-protein kinase TXK (TXK, Homo sapiens, UniProt P42681)	–	untreated control	73.8%
Tyrosine-protein kinase BTK (BTK, Homo sapiens, UniProt Q06187)	–	untreated control	87%
Tyrosine-protein kinase Srms (SRMS, Homo sapiens, UniProt Q9H3Y6)	–	untreated control	103%
Calcium/calmodulin-dependent protein kinase type II subunit alpha (CAMK2A, Homo sapiens, UniProt Q9UQM7)	–	untreated control	99%

Single results of other studies
Compound	cell line	concentration	quantity	value
CC[C@@H](C)c1nc2cc(Nc3ccnc4ccc(S(=O)(=O)C(C)C)cc34)ccc2s1.Cl	L929 RIPK3 knockout	25 µM	viability	91.1% and 97.7% and 71.1% and 96.3% and 89.5%

Some of these lines once more (study 2):
SMILES	remaining compound [%]
CC(=O)c1c(NCc2ccc(Cl)cc2)n(C)c2ccccc2c1=O	3.73
CN(C[C@@H]1C[C@H](F)CN1Cc1cncnc1)c1cnc(C#N)cn1	95.5
